Measured values pooled from the literature.
Numbers after ± are the reported error.
agrC: Receptor-histidine kinase AgrC (agrC, Staphylococcus aureus, UniProt O07911)
Chain of UniProt Q9NR22 (whole entry, looked up): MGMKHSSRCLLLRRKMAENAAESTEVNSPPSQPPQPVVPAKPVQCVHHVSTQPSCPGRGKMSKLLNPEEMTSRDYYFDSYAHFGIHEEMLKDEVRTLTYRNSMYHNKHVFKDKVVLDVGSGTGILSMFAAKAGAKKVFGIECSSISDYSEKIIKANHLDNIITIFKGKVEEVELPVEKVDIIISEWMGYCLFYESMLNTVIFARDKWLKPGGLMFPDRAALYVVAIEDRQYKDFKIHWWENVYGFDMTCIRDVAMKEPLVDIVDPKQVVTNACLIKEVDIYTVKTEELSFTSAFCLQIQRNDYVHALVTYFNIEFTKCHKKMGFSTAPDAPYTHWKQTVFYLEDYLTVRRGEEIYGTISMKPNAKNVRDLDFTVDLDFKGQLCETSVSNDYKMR
Chain of UniProt P34969 (whole entry, looked up): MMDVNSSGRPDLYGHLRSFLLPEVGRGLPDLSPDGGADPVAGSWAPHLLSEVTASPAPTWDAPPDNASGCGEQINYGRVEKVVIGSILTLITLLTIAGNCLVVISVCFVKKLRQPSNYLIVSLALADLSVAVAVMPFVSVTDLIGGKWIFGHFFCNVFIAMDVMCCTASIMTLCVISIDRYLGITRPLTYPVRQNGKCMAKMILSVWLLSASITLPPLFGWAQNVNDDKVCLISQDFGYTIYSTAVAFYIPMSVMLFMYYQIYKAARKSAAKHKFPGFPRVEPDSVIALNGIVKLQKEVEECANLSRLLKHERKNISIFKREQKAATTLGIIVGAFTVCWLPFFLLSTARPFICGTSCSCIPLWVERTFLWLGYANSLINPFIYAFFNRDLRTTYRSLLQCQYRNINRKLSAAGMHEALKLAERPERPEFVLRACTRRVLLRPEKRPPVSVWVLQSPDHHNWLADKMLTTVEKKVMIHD
Chain of UniProt Q9NPD5 (whole entry, looked up): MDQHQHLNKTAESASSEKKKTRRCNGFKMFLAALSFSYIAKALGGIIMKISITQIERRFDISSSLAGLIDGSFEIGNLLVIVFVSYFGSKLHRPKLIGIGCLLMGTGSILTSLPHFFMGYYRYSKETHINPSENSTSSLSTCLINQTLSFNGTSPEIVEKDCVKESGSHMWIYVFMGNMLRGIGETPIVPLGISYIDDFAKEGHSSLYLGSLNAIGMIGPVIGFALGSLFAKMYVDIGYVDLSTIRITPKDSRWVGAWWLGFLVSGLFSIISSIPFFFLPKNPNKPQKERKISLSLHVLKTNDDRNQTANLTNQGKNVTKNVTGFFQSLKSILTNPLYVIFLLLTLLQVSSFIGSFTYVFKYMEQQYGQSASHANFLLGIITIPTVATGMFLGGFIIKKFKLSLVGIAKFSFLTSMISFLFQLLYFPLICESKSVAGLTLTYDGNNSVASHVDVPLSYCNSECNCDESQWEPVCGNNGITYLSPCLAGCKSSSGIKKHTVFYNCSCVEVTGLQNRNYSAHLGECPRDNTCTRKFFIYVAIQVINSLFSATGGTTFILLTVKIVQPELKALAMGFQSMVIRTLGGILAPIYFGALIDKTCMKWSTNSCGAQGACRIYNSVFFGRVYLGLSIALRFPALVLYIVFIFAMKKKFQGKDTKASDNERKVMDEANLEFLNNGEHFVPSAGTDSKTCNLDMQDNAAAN
Chain of UniProt Q13393 (whole entry, looked up): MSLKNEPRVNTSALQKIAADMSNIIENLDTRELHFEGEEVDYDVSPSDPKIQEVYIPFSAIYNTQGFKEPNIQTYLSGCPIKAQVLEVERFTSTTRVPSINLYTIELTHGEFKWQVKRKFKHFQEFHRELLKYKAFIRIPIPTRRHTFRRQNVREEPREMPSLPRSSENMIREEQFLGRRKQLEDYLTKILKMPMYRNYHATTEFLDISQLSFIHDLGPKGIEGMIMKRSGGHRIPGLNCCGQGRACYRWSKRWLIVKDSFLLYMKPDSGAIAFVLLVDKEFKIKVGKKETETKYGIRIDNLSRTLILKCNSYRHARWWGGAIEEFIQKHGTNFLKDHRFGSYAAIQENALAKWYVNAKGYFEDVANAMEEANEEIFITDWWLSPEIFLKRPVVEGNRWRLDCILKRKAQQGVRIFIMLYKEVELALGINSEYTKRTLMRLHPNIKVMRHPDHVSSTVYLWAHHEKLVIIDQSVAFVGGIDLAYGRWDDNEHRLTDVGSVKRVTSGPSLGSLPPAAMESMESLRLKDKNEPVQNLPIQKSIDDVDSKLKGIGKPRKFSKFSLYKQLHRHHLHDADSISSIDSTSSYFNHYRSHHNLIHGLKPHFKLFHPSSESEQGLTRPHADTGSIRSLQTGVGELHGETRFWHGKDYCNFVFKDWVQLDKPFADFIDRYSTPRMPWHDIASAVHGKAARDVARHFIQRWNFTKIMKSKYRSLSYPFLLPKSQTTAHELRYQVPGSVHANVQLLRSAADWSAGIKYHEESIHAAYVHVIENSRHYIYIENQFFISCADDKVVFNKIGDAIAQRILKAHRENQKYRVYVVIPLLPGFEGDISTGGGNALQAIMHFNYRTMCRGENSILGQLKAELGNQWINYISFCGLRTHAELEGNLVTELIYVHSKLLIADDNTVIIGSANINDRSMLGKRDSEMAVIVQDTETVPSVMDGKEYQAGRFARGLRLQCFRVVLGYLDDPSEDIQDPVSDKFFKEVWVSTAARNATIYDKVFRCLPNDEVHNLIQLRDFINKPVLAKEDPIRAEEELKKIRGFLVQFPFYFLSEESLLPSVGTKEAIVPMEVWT
Chain of UniProt Q8WTS6 (whole entry, looked up): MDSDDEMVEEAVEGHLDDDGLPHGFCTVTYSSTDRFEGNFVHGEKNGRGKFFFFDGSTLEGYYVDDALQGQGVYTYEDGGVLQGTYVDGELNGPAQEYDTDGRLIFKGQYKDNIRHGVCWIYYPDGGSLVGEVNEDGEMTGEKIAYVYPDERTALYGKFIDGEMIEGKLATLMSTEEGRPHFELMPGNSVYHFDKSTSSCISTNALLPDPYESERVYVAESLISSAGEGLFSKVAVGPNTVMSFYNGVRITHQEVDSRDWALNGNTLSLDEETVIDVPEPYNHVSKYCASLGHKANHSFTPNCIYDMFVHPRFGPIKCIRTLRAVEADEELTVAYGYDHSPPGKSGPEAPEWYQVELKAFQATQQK
Chain of UniProt Q16706 (whole entry, looked up): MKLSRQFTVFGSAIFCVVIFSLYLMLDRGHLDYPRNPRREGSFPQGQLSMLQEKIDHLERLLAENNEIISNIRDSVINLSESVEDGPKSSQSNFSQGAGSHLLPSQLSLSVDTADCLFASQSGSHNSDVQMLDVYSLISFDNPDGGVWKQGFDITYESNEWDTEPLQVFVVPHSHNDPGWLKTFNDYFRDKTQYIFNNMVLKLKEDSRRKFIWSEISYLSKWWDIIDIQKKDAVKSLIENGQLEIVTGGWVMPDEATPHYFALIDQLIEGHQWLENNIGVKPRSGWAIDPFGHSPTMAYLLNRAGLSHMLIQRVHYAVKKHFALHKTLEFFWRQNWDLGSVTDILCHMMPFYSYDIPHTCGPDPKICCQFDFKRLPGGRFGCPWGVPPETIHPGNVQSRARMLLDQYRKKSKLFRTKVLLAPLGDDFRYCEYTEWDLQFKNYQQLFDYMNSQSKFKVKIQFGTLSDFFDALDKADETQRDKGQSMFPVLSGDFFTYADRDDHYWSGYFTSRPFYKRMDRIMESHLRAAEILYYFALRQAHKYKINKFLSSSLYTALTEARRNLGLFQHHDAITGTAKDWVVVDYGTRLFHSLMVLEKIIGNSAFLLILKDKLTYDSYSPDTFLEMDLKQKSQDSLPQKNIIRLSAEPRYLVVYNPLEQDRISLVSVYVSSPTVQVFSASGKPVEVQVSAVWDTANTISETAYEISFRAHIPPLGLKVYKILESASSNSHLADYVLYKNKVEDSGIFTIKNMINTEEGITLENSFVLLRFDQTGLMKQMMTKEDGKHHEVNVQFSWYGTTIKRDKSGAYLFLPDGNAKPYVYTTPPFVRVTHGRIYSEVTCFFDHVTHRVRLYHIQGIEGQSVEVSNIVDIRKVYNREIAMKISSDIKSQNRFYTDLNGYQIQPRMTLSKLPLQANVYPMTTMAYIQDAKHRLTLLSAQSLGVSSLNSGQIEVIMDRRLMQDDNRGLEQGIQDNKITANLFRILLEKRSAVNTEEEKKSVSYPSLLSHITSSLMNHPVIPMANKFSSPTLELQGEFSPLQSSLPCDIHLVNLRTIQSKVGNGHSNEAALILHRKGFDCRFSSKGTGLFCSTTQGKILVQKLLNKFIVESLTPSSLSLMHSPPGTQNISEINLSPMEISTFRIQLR
Chain of UniProt P41020 (whole entry, looked up): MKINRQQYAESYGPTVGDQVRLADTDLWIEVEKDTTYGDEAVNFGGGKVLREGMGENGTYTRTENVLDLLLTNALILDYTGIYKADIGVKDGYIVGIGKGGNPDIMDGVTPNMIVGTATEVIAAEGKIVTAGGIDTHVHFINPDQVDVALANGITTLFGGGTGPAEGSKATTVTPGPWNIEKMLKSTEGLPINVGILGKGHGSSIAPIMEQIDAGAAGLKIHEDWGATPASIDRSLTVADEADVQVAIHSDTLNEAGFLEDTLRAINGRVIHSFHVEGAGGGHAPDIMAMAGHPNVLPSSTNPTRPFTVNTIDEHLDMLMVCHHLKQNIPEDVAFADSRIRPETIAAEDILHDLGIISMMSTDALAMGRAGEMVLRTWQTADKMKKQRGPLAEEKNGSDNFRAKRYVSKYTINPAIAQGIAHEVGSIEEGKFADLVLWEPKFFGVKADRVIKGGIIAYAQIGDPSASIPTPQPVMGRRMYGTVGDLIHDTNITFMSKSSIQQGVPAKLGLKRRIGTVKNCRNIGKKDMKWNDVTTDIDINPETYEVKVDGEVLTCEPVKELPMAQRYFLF
Chain of UniProt P20231 (whole entry, looked up): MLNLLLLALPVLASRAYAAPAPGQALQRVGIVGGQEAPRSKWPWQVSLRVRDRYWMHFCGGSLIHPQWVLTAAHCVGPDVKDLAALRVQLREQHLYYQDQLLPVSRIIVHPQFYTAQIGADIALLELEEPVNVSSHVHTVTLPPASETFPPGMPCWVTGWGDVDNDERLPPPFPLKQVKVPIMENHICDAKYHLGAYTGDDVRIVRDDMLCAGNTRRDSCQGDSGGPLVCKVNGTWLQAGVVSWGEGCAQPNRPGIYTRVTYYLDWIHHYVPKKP

SMILES	target	test	test system	setting	IC50
CC(=O)N[C@@H](Cc1ccccc1)C(=O)N[C@@H](CC(C)C)C(=O)N[C@H](C(=O)N[C@@H](CC(=O)O)C(=O)CCl)[C@@H](C)O	Caspase-4 (Casp4, Mus musculus, UniProt P70343)	enzyme activity, inhibitor, fluorescence			25600 nM
CN1CCN(c2nnnc3c2sc2nc(N4CCOCC4)c4c(c23)CCCC4)CC1	Beta-glucuronidase (uidA, Escherichia coli, UniProt P05804)	enzyme activity, inhibitor, absorbance		pH 7.5	12800 nM
CC[C@H](C)[C@H](NC(=O)[C@@H](N)Cc1ccc(O)cc1)C(=O)N[C@@H](Cc1ccccc1)C(=O)N[C@@H](CC(N)=O)C(=O)N[C@@H](CC(C)C)C(=O)O	OPRK1 (Homo sapiens, UniProt P41145)	[3H]EKC binding displacement, whole-cell radioligand binding	PC-3	together with: DADLE	> 1000 nM
C/C(=C\C(=O)N[C@@H](CC(C)C)C(=O)N1CC(F)(F)C[C@H]1C(=O)N[C@H](C)CCC(N)=O)c1ccc(OP(=O)(O)O)cc1	STAT3 (Homo sapiens, UniProt P40763)	phosphopeptide binding, inhibitor, fluorescence polarization			121 ± 16 nM
Cc1ccc2nc(C)c(C(=O)NCc3cccs3)n2c1	Cytochrome P450 3A4 (CYP3A4, Homo sapiens, UniProt P08684)	enzyme activity, inhibitor		together with: VR substrate	> 50000 nM
CCCC[C@@H]1NC(=O)[C@H]([C@@H](C)O)NC(=O)[C@H](CCCNC(=N)N)NC(=O)CNC(=O)CC[C@@H](C(=O)N[C@@H](C)C(=O)N[C@@H](CCCNC(=N)N)C(=O)N[C@@H](CCCCN)C(=O)N[C@@H](CO)C(=O)N[C@H](C(=O)NCC(=O)NCC(N)=O)[C@@H](C)O)NC(=O)[C@H](CCC(N)=O)NC1=O	SETD7 (Homo sapiens, UniProt Q8WTS6)	enzyme activity, inhibitor, mass spectrometry			950 nM
O=C(NCCN1CCC2(CC1)C(=O)NCN2C(=O)C1CC1)c1ccc2ccccc2c1	Phospholipase D2 (Homo sapiens, UniProt O14939)	enzyme activity, inhibitor			440 nM
Cn1c(=O)c2cc(C(=O)NCCCN3CCCCCC3)sc2c2ccccc21	Bifunctional FPP/GGPP synthase (Plasmodium falciparum, UniProt Q8II79)	FPP production, inhibitor		non-saturating substrate	330 nM
O=C(NCCCCCCCCn1ccc2ccccc21)Oc1ccccc1	Faah (Rattus norvegicus, UniProt P97612)		rat brain homogenate	60 min, 37 °C	100 nM
NNC(=O)c1ccc(-n2nc(-c3ccccc3O)nc2-c2ccccc2O)cc1	5-lipoxygenase				12700 ± 2090 nM
CNc1nc2sc3c(N4CCNCC4)nnnc3c2c2c1CCCC2	Beta-glucuronidase (Streptococcus agalactiae serotype V, UniProt Q8E0N2)		Streptococcus agalactiae		770 ± 90 nM
CC(=O)NCP(=O)(O)O	Urease subunit alpha (Sporosarcina pasteurii, UniProt P41020)	enzyme activity, inhibitor, indophenol colorimetric		20 min, pH 7.0, 37 °C, together with: 50 mM urea	463000 ± 34000 nM
Oc1ccc(-c2sc3cc(O)ccc3c2-c2ccc(OCCN3CCCCC3)cc2)cc1	N-acyl-phosphatidylethanolamine-hydrolyzing phospholipase D (Homo sapiens, UniProt Q6IQ20)	enzyme activity, inhibitor, mass spectrometry			58000 nM
CC[C@H](C)[C@H](N)C(=O)N[C@@H](CC(N)=O)C(=O)N[C@H]1CSC(=O)[C@H](CC(C)C)NC(=O)[C@H](CC(C)C)NC(=O)[C@H](Cc2ccccc2)NC(=O)[C@H](CC(N)=O)NC1=O	agrC				1.17 nM
O=C(Oc1cncc(Cl)c1)c1cccs1	Chymotrypsinogen A (Bos taurus, UniProt P00766)	enzyme activity, inhibitor			13000 nM
CC(C)C[C@H](NC(=O)[C@H](CO)NC(=O)[C@H](Cc1ccc(O)cc1)NC(=O)CNC(=O)[C@H](CCCNC(=N)N)NC(=O)[C@H](Cc1ccc(O)cc1)NC(=O)[C@H](CC(N)=O)NC(=O)[C@@H](N)CC(=O)O)C(=O)NCC(=O)N[C@@H](CC(N)=O)C(N)=O	MHC class II I-A g7 (Mus musculus, UniProt P04228+Q31135)	peptide binding, competitor, competition ELISA		at least 24 h, pH 7.0, room temperature, together with: biotinylated HEL 10-23 200 nM	> 50000 nM
N#Cc1cn([C@@H]2O[C@H](CSCC[C@H](N)C(=O)O)[C@@H](O)[C@H]2O)c2ncnc(N)c12	PRMT8 (Homo sapiens, UniProt Q9NR22)	enzyme activity, inhibitor, radiometric			2000 nM
NC[C@@H]1[C@@H](O)[C@@H](O)[C@H]2[C@H](O)CCCN21	Alpha-mannosidase 2 (Homo sapiens, UniProt Q16706)	enzyme activity, inhibitor, 4-MU fluorogenic		together with: Man-α-4MU 5 mM	650 nM
CCn1nnc(-c2ccccc2NC(=O)[C@H](C)CS)n1	VIM-2 (Escherichia coli, UniProt Q5U7L7)	enzyme activity, inhibitor, fluorescence		with preincubation	60.3 nM

SMILES	target	test	test system	setting	IC50
O=C(OC1Cc2c(O)cc(O)cc2OC1c1cc(O)c(O)c(O)c1)c1cc(O)c(O)c(O)c1 (centres unmarked)	mRNA cap guanine-N(7) methyltransferase, with RAM (RNMT, Homo sapiens, UniProt O43148)	N7-methyltransferase activity, inhibitor, Py-FLINT		RNMT-RAM complex, together with: SAM 20 µM	2880 ± 920 nM
O=C1NC(=S)NC(=O)C1=Cc1ccc(-c2cccc([N+](=O)[O-])c2)o1	BRAF (Homo sapiens, UniProt P15056, V600E)	enzyme activity, inhibitor, ELISA			2090 nM
O=C(NCCN1CCC2(CC1)C(=O)NCN2Cc1ccncc1)c1ccc2ccccc2c1	Phospholipase D1 (Homo sapiens, UniProt Q13393)	enzyme activity, inhibitor			24000 nM
CCOc1cc(/C=C2\Sc3ccccc3C2=O)cc(Br)c1OCC(=O)O	ACP3 (Homo sapiens, UniProt P15309)	enzyme activity, inhibitor			15400 nM
CCN(Cc1ccccc1)C(=O)CCc1nc(CN2CCN(C(=O)Cc3ccc(OC)c(OC)c3)CC2)no1	Scn10a (Rattus norvegicus, UniProt Q62968)	ion current, inhibitor, patch clamp			240 nM
CC1CC2OCOC2C(OC2CCC3(C=O)C4CCC5(C)C(C6=CC(=O)OC6)CCC5(O)C4CCC3(O)C2)O1 (centres unmarked)	Na+/K+-ATPase (pig cerebral cortex)	enzyme activity, inhibitor, phosphate release colorimetric		30 min, 37 °C, together with: ATP-Mg 3 mM	2300 ± 294 nM
COc1ccc(C(=O)CCl)c2c1C(=O)CO2	Fosb/Jund, ΔFosB isoform (Mus musculus, UniProt P13346+P15066)	ΔFOSB/JUND DNA binding, fluorescence polarization		15 min, together with: TMR-cdk5 oligonucleotide	22300 ± 1900 nM
CC(=O)CCC1C(=O)NC(C(C)C)C(=O)NC(Cc2cc(O)cc(F)c2)C(=O)N2CCCC(N2)C(=O)OC(C(C)=CC=CC(=O)N2CCCCO2)CC=CC=CC(O)C(C)C1O (centres unmarked)	SLCO1B3 (Homo sapiens, UniProt Q9NPD5)	transporter uptake, inhibitor	CHO	pH 7.3	1750 nM
O=C1c2ccccc2[Se](=O)N1c1ccccc1 (centres unmarked)	HDAC7 (Homo sapiens, UniProt Q8WUI4)	enzyme activity, inhibitor, fluorescence			1880 nM
COc1ccc(/C=C/C(=O)c2ccc(N3CCNCC3)cc2)cc1	Beta-secretase 1 (BACE1, Homo sapiens, UniProt P56817)	enzyme activity, inhibitor, fluorescence		with preincubation	6720 nM
Cc1ccc(C(C)C)cc1.[Cl][Au].[Cl][Ru][Cl].c1ccc(P(CP(c2ccccc2)c2ccccc2)c2ccccc2)cc1	Cathepsin B (CTSB, Homo sapiens, UniProt P07858)	inhibitor		10 min preincubation, pH 6, room temperature, together with: Z-FR-AMC	31400 nM
O=C(Cc1ccc(F)cc1)Nc1nc(-c2ccccn2)cs1	CTP synthase 1 (Homo sapiens, UniProt P17812)	enzyme activity, inhibitor, ADP detection			> 100000 nM
N=C(N)NC(=O)c1ccc(C(=O)NCCCC[C@H](NC(=O)CNC(=O)CCC(=O)NN=Cc2cc(C=NNC(=O)CCC(=O)NCC(=O)N[C@@H](CCCCNC(=O)c3ccc(C(=O)NC(=N)N)[nH]3)C(=O)N[C@@H](Cc3c[nH]c4ccccc34)C(=O)N[C@@H](CCCCN)C(N)=O)cc(C=NNC(=O)CCC(=O)NCC(=O)N[C@@H](CCCCNC(=O)c3ccc(C(=O)NC(=N)N)[nH]3)C(=O)N[C@@H](Cc3c[nH]c4ccccc34)C(=O)N[C@@H](CCCCN)C(N)=O)c2)C(=O)N[C@@H](Cc2c[nH]c3ccccc23)C(=O)N[C@@H](CCCCN)C(N)=O)[nH]1	Tryptase beta-2 (TPSB2, Homo sapiens, UniProt P20231)	enzyme activity, high-affinity phase, inhibitor		together with: Tos-Gly-Pro-Arg-AMC substrate	114 ± 19.3 nM
O=C(O)CNC(CO)(CO)CO	IMP-28 metallo-beta-lactamase	enzyme activity, inhibitor, FC5 fluorescent substrate		60 pM enzyme, 1 µM ZnSO4	> 200000 nM
CC[C@H](C)[C@@H]1NC(=O)[C@H](Cc2ccccc2)NC(=O)[C@H](CC(N)=O)NC(=O)[C@@H](NC(=O)[C@@H](NC(=O)[C@H](CO)NC(=O)[C@@H](N)Cc2ccc(O)cc2)[C@@H](C)O)CSC(=O)[C@H](CCSC)NC1=O	agrC				72.4 nM
C/C=C1/CN2CCc3c([nH]c4ccccc34)[C@@H]2C[C@@H]1/C(=C\OC)C(=O)OC	HTR7 (Homo sapiens, UniProt P34969)	cAMP, antagonist			6000 nM
CCCC[C@H]1C(=O)N(C)[C@@H](CCCC)C(=O)N[C@@H](CC(C)C)C(=O)N[C@H](C(=O)NCC(N)=O)CSCC(=O)N[C@@H](Cc2ccc(O)cc2)C(=O)N2CCC[C@H]2C(=O)N[C@@H](CC(N)=O)C(=O)N2[C@@H](C[C@@H]3CCCC[C@@H]32)C(=O)N[C@@H](CN)C(=O)N[C@@H](CC(C)C)C(=O)N2C[C@H](O)C[C@H]2C(=O)N[C@@H](Cc2c[nH]c3ccccc23)C(=O)N[C@@H](CCN)C(=O)N[C@@H](Cc2cn(CC(=O)O)c3ccccc23)C(=O)N1C	CD274 (Homo sapiens, UniProt Q9NZQ7)	inhibitor, TR-FRET			18.6 nM
CC(C)C[C@H](NC(=O)[C@H](CC(C)C)NC(=O)[C@H](CCC(=O)O)NC(=O)[C@@H](N)CS)C(=O)O	PPO3 (Agaricus bisporus, UniProt C7FF04)	enzyme activity, inhibitor			149000 nM
CCc1n[nH]c(NC(=O)c2ccc3c(c2)nnn3C)n1	Genome polyprotein, 3C protease (rhinovirus B14, UniProt P03303)	3C protease activity, SAMDI-MS	human rhinovirus		57000 nM

Repeated from above:
SMILES	target	test	test system	setting	IC50
NNC(=O)c1ccc(-n2nc(-c3ccccc3O)nc2-c2ccccc2O)cc1	5-lipoxygenase				12700 ± 2090 nM
Cc1ccc2nc(C)c(C(=O)NCc3cccs3)n2c1	Cytochrome P450 3A4 (CYP3A4, Homo sapiens, UniProt P08684)	enzyme activity, inhibitor		together with: VR substrate	> 50000 nM
CCN(Cc1ccccc1)C(=O)CCc1nc(CN2CCN(C(=O)Cc3ccc(OC)c(OC)c3)CC2)no1	Scn10a (Rattus norvegicus, UniProt Q62968)	ion current, inhibitor, patch clamp			240 nM
O=C1NC(=S)NC(=O)C1=Cc1ccc(-c2cccc([N+](=O)[O-])c2)o1	BRAF (Homo sapiens, UniProt P15056, V600E)	enzyme activity, inhibitor, ELISA			2090 nM
COc1ccc(/C=C/C(=O)c2ccc(N3CCNCC3)cc2)cc1	Beta-secretase 1 (BACE1, Homo sapiens, UniProt P56817)	enzyme activity, inhibitor, fluorescence		with preincubation	6720 nM
O=C(NCCN1CCC2(CC1)C(=O)NCN2C(=O)C1CC1)c1ccc2ccccc2c1	Phospholipase D2 (Homo sapiens, UniProt O14939)	enzyme activity, inhibitor			440 nM
